Measurements pooled from the literature.
Several values in a cell are separate wells, animals, samples, runs or records. ± marks the error that the study gave.
TDP1: Tyrosyl-DNA phosphodiesterase 1 (TDP1, Homo sapiens, UniProt Q9NUW8)
UniProt Q9NUW8, sequence (whole entry, looked up): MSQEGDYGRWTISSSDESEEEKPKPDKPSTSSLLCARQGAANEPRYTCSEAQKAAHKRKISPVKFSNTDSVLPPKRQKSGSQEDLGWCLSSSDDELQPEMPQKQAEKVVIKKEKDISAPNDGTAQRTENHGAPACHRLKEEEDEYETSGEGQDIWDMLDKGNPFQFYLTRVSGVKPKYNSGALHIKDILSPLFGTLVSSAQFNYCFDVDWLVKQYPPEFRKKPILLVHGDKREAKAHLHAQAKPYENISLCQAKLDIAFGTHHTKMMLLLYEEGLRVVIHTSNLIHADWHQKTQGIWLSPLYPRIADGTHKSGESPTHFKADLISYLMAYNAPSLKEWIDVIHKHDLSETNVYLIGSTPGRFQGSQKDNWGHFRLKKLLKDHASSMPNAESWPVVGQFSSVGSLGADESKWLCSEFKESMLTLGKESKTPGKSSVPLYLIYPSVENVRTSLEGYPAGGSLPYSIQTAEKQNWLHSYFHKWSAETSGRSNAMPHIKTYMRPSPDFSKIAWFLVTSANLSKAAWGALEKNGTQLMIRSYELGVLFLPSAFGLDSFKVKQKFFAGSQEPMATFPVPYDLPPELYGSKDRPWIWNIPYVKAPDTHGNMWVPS

COc1cc(O)ccc1CCC(c1ccc(O)cc1)c1cc2c(c(C)c1O)OC(c1ccc(O)cc1)CC2 (mixture of isomers) — 15-HETE level (human blood; 1 µM, together with: A23187): 191 ± 44 pg/mL
COCC1CN(C2CCN(c3cc(OC)c(Nc4ncc(Br)c(Nc5ccc6c(c5P(C)(C)=O)OCCO6)n4)cc3C)CC2)C1 — objective response rate (RECIST 1.1; advanced EGFR-mutant NSCLC patients; 90 mg once daily): 0%
CC[C@H](C)[C@@H](C(=O)N[C@@H](CC(C)C)C(=O)N[C@@H](CO)C(=O)N[C@@H](CO)C(=O)N[C@H](C(=O)N[C@@H](CCC(=O)O)C(=O)N[C@H](C(=O)NCC(=O)N[C@@H](CO)C(=O)N[C@@H](CO)C(=O)N[C@H](C(=O)N1C[C@H](O)C[C@H]1C(N)=O)[C@@H](C)O)C(C)C)[C@@H](C)O)N(C)C(=O)[C@H](C)NC(=O)CN(C)C(=O)[C@H](Cc1ccccc1)NC(=O)[C@H](CO)NC(=O)[C@H](CO)NC(=O)[C@H](CCCNC(=N)N)NC(=O)[C@H](CCC(N)=O)NC(=O)[C@H](CC(C)C)NC(=O)[C@H](Cc1ccccc1)NC(=O)[C@H](Cc1c[nH]cn1)NC(=O)[C@H](C)NC(=O)[C@H](CC(C)C)NC(=O)[C@H](CCCNC(=N)N)NC(=O)[C@H](CCC(=O)O)NC(=O)[C@@H](NC(=O)[C@H](C)NC(=O)[C@@H]1CSSC[C@H](NC(=O)[C@H](CCCNC(=N)N)NC(=O)CC[C@H](NC(=O)CCCCCCCCCCCCCCCCCCC(=O)O)C(=O)O)C(=O)NCC(=O)N[C@@H]([C@@H](C)O)C(=O)N[C@@H](C)C(=O)N[C@@H]([C@@H](C)O)C(=O)N1)[C@@H](C)O — food intake (male Sprague-Dawley rats; subcutaneous, 30 nmol/kg single dose, 24 h; reference: vehicle): 74.5 ± 2.4%
COc1ccc(C2=Nn3c(nnc3C3CCCCC3)SC2)cc1 — IC50 (Uncharacterized protein (Trypanosoma brucei brucei, UniProt Q386Q8); inhibitor, coupled colorimetric; Trypanosoma brucei): 318 µM
CC(CCC(=O)NCc1ccc(C(=O)NO)cc1)C1CCC2C3C(O)CC4CC(O)CCC4(C)C3CCC12C (stereo not shown) — relative abundance (item: CA; PCK rat (Pkhd1 mutant), peripheral blood; oral gavage, dose not given, 5 months; reference: total bile acids): 35.2%
CC(C)=CCc1cc(C(=O)/C=C/c2ccc(O)cc2)c(O)cc1O — Vmax (phase I metabolism; dog liver microsomes): 21.9 ± 1.12 pmol/min/mg
CC(C)(C)NCC(SS(=O)(=O)O)c1ccccc1 (stereo not shown) — spleen weight (mouse infected with Schistosoma mansoni; 600 mg/kg, day 42 post-infection dosing once, perfusion day 52 post-infection): 0.49 g and 0.52 g and 0.6 g and 0.62 g
COC1CN([C@H]2CC[C@H]([C@@]3(C)Oc4c(Cl)cc(C(=O)NCc5c(SC)cc(C)[nH]c5=O)c(C)c4O3)CC2)C1 — log2 fold change (RNA-seq, item: RELN; human, whole blood; dose not given, 24 h; reference: pretreatment baseline): 5.19
COc1ccc(NC(=O)c2ccc3[nH]c(-c4ccc(N(C)C)cc4)nc3c2)cn1 — tumour volume (CT26, BALB/c nude mice, subcutaneous graft; dose not given, day 9): 1200 mm3 and 1770 mm3 and 767 mm3 and 493 mm3 and 808 mm3
COc1ccc(C(=O)CCc2cc(C(CCc3ccc(O)cc3OC)c3ccc(O)cc3)c(O)cc2OC)cc1 (racemic) — 12-HETE level (human blood; 1 µM, together with: A23187): 10100 ± 4140 pg/mL
Cc1cccc(C)c1CNc1cc(C(=O)N2CCC2)cn2c(C)c(C)nc12 — inhibition (esophageal lesions; rat reflux esophagitis model; oral, 0.5 mg/kg): 42.2%
c1ccc(C2CC(Nc3ccc(-c4ccc(NC5=NOC(c6ccccc6)C5)cc4)cc3)=NO2)cc1 (stereo not shown) — inhibition (carrageenan paw oedema; albino rat; oral, 50 mg/kg, 3 h; reference: vehicle): 20.3%
COc1c(C=NOCc2ccc3nc(-c4ccccc4)c(Nc4ccc(C(=O)O)cc4)n3c2)c(C)nn1C (mixture of isomers) — inhibition (TDP1; enzyme activity, inhibitor; 100 µM, unpurified compound): -10.6%
Nc1nc2cc(CC[C@H]3C[C@@H](n4ccc5c(N)ncnc54)[C@H](O)[C@@H]3O)ccc2cc1Br — tumour volume (NCI-H520 xenograft, mouse; 3.0 mg/kg/day, day 27): 94 ± 8 mm3
O=S(=O)(NCc1ccncc1)c1ccc(C2CCCCC2)cc1 — C1q area reduction (immunohistochemistry; CK-p25 mice male, hippocampus; ip, 0.3 mg/kg daily, 2 wk; reference: vehicle): ~26%
C#CCOc1ccc(-c2nnc(-c3ccccn3)nn2)cc1 — second order rate constant (1,4-dioxane; 25 °C, together with: TCO): 13 ± 1 M⁻¹ s⁻¹
CC(C)C[C@H](NC(=O)CNC(=O)[C@H](CCC(N)=O)NC(=O)[C@H](CC(C)C)NC(=O)[C@H](CC(C)C)NC(=O)[C@H](CCCNC(=N)N)NC(=O)[C@H](CCC(N)=O)NC(=O)[C@H](CC(C)C)NC(=O)[C@H](CCCNC(=N)N)NC(=O)[C@H](C)NC(=O)CNC(=O)[C@H](CCC(=O)O)NC(=O)[C@H](CCCNC(=N)N)NC(=O)[C@H](CC(C)C)NC(=O)[C@H](CCCNC(=N)N)NC(=O)[C@H](CO)NC(=O)[C@H](CC(C)C)NC(=O)[C@H](CCC(=O)O)NC(=O)[C@H](CO)NC(=O)[C@@H](NC(=O)[C@H](Cc1ccccc1)NC(=O)[C@@H](NC(=O)CNC(=O)[C@H](CC(=O)O)NC(=O)C(C)(C)NC(=O)[C@@H](N)Cc1c[nH]cn1)[C@@H](C)O)[C@@H](C)O)C(=O)N[C@@H](CC(C)C)C(=O)N[C@@H](CCC(N)=O)C(=O)NCC(=O)N[C@@H](CC(C)C)C(=O)N[C@H](C(=O)NCC(=O)N[C@@H](CCCCNC(=O)COCCOCCNC(=O)COCCOCCNC(=O)CC[C@H](NC(=O)CCCCCCCCCCCCCCCCC(=O)O)C(=O)O)C(N)=O)C(C)C — luciferase induction (cAMP reporter gene; CRE-Luc mouse, liver homogenate; subcutaneous, 300 nmol/kg, 6 h; reference: vehicle): 148 fold
COCCOCCOCCNC(=O)Cc1cc(CC(=O)N[C@H]2C[C@H]3C(=O)Nc4cc(OCCOCCOCCOC)cc(n4)C(=O)N4CCC[C@H]4C(=O)Nc4cc(OCCOCCOCCOC)cc(n4)C(=O)N4CCC[C@H]4C(=O)Nc4cc(OCCOCCOCCOC)cc(n4)C(=O)N3C2)cc(CC(=O)N[C@H]2C[C@H]3C(=O)Nc4cc(OCCOCCOCCOC)cc(n4)C(=O)N4CCC[C@H]4C(=O)Nc4cc(OCCOCCOCCOC)cc(n4)C(=O)N4CCC[C@H]4C(=O)Nc4cc(OCCOCCOCCOC)cc(n4)C(=O)N3C2)c1 — TΔS (anion binding, ITC; water/acetonitrile 70 vol% (87.1 mol%); 298 K, together with: sodium sulfate): 13.6 ± 0.1 kJ/mol
COc1ccccc1C1CC(Nc2ccc(-c3ccc(NC4=NN(C(C)=O)C(c5ccccc5OC)C4)cc3)cc2)=NN1C(C)=O (stereo not shown) — inhibition (carrageenan paw oedema; albino rat; oral, 50 mg/kg, 3 h; reference: vehicle): 42.2%
CC(=O)Nc1nc(C=NOCc2ccc(-c3nc4cc(-c5ccccc5)ccn4c3Nc3ccc(C(=O)O)cc3)cc2)c(Br)s1 (mixture of isomers) — inhibition (TDP1; enzyme activity, inhibitor; 100 µM, unpurified compound): 83.6%
COc1ccc(C2CC(Nc3ccc(-c4ccc(NC5=NOC(c6ccc(OC)cc6)C5)cc4)cc3)=NO2)cc1 (stereo not shown) — inhibition (carrageenan paw oedema; albino rat; oral, 25 mg/kg, 3 h): 27.8%
CN(CCNCc1cc(C(=O)[O-])ccc1[O-])CCNCc1cc(C(=O)[O-])ccc1[O-].[Cl-].[Fe+3].[K+].[K+] — kidney contrast enhancement (T1-weighted MRI 4.7 T; BALB/c mice; intravenous, 0.10 mmol/kg, 40 min): decreased

For quick reference, copied from above:
Cc1cccc(C)c1CNc1cc(C(=O)N2CCC2)cn2c(C)c(C)nc12 — inhibition (esophageal lesions; rat reflux esophagitis model; oral, 0.5 mg/kg): 42.2%
c1ccc(C2CC(Nc3ccc(-c4ccc(NC5=NOC(c6ccccc6)C5)cc4)cc3)=NO2)cc1 (stereo not shown) — inhibition (carrageenan paw oedema; albino rat; oral, 50 mg/kg, 3 h; reference: vehicle): 20.3%
